Measurements from different studies.
Each line is one published result; not all experiments were run side by side. ± marks the error that the study gave. ≈ marks a conversion by molar mass, not a printed value.
Chain of UniProt P29144 (whole entry, looked up): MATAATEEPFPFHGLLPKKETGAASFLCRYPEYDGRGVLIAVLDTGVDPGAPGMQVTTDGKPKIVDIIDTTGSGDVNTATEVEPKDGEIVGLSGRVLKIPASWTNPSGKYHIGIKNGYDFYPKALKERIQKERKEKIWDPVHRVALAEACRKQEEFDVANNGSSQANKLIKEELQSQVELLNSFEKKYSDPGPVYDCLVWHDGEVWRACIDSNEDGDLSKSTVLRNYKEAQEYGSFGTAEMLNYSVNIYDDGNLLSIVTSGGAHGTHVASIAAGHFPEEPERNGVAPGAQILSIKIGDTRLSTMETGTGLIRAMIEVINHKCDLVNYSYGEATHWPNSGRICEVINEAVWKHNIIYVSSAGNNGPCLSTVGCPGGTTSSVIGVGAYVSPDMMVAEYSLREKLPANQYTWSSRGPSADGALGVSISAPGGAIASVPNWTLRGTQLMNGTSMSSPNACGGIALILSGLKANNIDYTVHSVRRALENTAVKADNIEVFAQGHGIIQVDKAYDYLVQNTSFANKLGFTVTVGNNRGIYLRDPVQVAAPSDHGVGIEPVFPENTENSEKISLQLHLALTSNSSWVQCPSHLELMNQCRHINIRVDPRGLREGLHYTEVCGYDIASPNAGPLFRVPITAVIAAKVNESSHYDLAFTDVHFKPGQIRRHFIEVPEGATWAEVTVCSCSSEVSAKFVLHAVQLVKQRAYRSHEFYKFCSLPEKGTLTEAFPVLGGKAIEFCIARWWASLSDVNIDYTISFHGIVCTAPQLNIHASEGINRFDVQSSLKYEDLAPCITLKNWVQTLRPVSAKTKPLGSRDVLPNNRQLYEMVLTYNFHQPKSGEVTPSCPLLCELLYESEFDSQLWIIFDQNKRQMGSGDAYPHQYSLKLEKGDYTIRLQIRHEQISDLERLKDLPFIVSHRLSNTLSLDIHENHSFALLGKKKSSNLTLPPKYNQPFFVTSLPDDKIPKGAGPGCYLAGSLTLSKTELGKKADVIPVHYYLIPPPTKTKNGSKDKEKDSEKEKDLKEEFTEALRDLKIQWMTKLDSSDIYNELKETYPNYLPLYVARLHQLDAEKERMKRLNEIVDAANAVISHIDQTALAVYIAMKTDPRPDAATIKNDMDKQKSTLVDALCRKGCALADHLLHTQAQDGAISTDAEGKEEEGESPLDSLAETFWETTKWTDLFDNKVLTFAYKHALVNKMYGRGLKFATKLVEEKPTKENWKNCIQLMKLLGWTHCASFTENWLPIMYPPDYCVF
Chain of UniProt Q12913 (whole entry, looked up): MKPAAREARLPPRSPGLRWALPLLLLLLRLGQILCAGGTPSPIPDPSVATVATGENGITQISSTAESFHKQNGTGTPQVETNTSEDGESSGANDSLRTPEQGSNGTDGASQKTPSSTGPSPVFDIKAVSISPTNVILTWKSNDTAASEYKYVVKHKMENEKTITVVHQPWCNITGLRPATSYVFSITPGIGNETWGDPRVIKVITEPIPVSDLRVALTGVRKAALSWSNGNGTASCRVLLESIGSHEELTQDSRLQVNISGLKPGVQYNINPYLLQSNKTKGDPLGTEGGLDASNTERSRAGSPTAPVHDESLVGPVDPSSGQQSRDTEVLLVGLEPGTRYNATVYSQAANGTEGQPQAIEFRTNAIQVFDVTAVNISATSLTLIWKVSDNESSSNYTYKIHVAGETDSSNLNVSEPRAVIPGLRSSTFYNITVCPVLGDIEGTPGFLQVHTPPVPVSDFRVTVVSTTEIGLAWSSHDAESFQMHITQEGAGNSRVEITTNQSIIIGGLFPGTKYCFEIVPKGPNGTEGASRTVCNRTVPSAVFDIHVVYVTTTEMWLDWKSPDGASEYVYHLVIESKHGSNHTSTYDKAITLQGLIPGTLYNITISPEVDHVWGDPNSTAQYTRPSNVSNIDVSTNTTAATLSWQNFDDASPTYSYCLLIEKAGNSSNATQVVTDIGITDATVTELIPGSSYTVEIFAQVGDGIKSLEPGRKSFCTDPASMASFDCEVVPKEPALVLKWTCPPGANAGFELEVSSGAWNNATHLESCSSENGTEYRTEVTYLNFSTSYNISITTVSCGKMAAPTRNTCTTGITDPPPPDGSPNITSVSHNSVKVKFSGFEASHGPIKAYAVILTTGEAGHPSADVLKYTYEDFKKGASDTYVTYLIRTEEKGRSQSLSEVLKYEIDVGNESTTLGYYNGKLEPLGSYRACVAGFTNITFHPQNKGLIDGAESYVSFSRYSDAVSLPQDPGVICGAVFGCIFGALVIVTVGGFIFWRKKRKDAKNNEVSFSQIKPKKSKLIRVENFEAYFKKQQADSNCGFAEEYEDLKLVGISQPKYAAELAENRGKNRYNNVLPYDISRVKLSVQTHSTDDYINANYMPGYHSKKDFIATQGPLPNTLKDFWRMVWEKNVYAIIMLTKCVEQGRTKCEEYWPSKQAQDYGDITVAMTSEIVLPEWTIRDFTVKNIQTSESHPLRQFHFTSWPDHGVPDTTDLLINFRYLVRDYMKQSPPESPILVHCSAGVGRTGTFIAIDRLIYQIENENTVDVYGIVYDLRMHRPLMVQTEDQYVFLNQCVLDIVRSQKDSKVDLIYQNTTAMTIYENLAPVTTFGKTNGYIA
Chain of UniProt Q9H4A3 (whole entry, looked up): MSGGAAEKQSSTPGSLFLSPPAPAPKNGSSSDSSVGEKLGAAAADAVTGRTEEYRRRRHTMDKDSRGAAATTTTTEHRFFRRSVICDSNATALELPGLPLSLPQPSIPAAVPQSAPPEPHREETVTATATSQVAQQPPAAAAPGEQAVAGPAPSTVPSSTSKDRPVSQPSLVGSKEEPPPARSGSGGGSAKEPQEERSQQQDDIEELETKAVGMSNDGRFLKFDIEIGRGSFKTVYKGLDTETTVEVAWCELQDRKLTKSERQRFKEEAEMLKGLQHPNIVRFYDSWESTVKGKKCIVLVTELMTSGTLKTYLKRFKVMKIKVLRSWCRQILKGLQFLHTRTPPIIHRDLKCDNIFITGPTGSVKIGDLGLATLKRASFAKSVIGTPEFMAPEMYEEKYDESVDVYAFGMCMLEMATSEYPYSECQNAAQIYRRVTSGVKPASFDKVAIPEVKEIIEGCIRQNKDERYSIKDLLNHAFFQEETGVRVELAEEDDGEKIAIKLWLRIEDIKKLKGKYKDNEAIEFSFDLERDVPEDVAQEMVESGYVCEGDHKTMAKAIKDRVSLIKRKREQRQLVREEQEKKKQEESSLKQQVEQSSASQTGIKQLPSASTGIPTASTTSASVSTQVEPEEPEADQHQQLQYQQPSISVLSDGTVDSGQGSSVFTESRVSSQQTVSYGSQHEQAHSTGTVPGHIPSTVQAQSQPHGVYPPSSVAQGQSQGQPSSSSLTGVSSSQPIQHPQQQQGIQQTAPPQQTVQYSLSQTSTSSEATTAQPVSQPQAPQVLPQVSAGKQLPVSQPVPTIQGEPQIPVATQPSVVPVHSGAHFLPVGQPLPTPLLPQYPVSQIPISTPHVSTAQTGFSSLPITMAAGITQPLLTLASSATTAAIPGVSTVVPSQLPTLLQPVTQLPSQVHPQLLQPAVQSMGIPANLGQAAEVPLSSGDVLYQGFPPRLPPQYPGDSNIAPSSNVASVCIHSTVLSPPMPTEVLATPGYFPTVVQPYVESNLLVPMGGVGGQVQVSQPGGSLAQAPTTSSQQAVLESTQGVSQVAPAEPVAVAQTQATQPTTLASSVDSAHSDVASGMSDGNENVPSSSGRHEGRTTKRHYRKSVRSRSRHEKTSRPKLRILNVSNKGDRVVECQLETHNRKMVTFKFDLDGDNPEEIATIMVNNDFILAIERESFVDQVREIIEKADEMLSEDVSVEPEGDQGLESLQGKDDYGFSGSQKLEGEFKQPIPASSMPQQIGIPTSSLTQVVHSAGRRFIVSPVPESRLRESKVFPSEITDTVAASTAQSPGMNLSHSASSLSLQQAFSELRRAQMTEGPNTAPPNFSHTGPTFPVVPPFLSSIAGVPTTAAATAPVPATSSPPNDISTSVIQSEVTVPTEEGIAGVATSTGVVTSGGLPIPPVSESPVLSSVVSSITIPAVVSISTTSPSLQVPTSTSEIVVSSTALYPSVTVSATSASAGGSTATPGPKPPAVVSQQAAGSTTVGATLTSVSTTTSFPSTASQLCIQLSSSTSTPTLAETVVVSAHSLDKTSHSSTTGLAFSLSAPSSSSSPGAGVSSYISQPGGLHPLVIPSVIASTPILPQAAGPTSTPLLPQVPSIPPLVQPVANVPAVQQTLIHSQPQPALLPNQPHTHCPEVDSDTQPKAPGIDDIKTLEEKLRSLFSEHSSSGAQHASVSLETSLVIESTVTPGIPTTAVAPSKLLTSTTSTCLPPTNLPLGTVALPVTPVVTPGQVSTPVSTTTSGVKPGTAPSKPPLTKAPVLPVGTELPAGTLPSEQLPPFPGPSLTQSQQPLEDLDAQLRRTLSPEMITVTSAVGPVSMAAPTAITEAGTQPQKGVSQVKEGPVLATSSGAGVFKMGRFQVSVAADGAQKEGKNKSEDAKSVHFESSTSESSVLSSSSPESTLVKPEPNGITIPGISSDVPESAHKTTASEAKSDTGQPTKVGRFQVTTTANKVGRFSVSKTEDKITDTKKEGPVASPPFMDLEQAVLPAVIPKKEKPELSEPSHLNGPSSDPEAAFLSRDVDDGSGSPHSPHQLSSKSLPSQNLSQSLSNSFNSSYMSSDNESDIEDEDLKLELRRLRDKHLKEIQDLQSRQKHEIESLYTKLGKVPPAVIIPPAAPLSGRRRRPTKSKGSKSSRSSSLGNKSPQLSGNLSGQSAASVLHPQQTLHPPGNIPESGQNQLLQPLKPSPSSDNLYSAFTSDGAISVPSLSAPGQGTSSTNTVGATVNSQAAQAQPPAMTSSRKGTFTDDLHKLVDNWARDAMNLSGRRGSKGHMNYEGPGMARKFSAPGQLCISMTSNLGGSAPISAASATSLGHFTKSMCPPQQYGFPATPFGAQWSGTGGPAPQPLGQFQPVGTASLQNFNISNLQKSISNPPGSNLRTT

SMILES	tested on	test	system	setting	scale	quantity	value
[Cl-].[Cl-].[Pt+2].[Ru+2].c1ccc(-c2nc3ccccc3nc2-c2ccccn2)nc1.c1cnc2c(c1)ccc1cccnc12.c1cnc2c(c1)ccc1cccnc12	Danio rerio	–	embryos	45 µM, 12 h	–	survival rate	86.7 ± 3.3%
CC[C@H](C)[C@@H]1NC(=O)[C@H](CO)NC(=O)[C@H](CCSC)NC(=O)CNC(=O)[C@H](C)NC(=O)[C@H]([C@@H](C)CC)NC(=O)[C@@H](NC(=O)[C@@H](NC(=O)[C@@H](NC(=O)[C@H](C)NC(=O)[C@H](CCCCN)NC(=O)[C@H](C)NC(=O)[C@H](Cc2c[nH]c3ccccc23)NC(=O)[C@H](CC(=O)O)NC(=O)[C@@H](NC(=O)[C@@H](NC(=O)[C@@H]2CSSC[C@H](NC(=O)[C@H](Cc3ccc(O)cc3)NC(=O)[C@@H](NC(=O)CNC(=O)[C@H](CC(N)=O)NC(=O)CNC(=O)[C@H](Cc3ccc(O)cc3)NC(=O)[C@H](Cc3ccc(O)cc3)NC(=O)[C@H](CCCCN)NC(=O)CNC(=O)[C@H](CO)NC(=O)[C@H](Cc3c[nH]cn3)NC(=O)[C@@H](NC(=O)[C@@H](N)[C@@H](C)O)[C@@H](C)O)C(C)C)C(=O)N[C@@H]([C@@H](C)O)C(=O)N[C@@H](CCCCN)C(=O)N[C@@H](CC(N)=O)C(=O)N[C@@H](CCCCN)C(=O)N2)[C@@H](C)O)C(C)C)[C@@H](C)O)[C@@H](C)O)CSSC[C@@H](C(=O)O)NC(=O)[C@H](CCCCN)NC(=O)CNC(=O)[C@@H]2CCCN2C(=O)[C@H]([C@@H](C)CC)NC(=O)[C@H](C)NC(=O)CNC(=O)CNC(=O)[C@H](CC(C)C)NC(=O)[C@H](Cc2ccccc2)NC(=O)CNC(=O)CNC1=O (single isomer, unassigned)	Pediococcus damnosus	–	CECT 4797	15 min, 121 °C	–	MIC after heating	> 6 µg/mL
COc1cc2c(Oc3ccc4[nH]c(C)cc4c3F)ccnc2cc1OCC1(N)CC1	–	–	paediatric recurrent refractory sarcoma	8 mg	–	grade 1 or 2 weight loss	25%
O=C1c2c(O)c(=O)ccn2N([C@@H]2c3ccccc3SCc3c2ccc(F)c3F)[C@@H]2COCCN12	–	–	BALB/c mouse	subcutaneous, 2 mg/kg q12h	–	Cmax	113 ng/mL
Cc1cc(C(=O)NC(C)(C)COc2cccc3c2C(N)=NS(=O)(=O)N3)cc(C)n1	Escherichia coli	Ames test, initial	WP2 uvrA	50.0 µg/plate	baseline: solvent control	revertant ratio	0.9
CNC(=O)Oc1ccccc1OC(C)C	Anopheles gambiae	–	–	concentration not given, 1 h	–	mortality	100%
[Cl-].[Cl-].[Pt+2].[Ru+2].c1ccc(-c2nc3cc4ccccc4cc3nc2-c2ccccn2)nc1.c1cnc2c(c1)ccc1cccnc12.c1cnc2c(c1)ccc1cccnc12	Danio rerio	–	embryos	60 µM, 48 h	–	hatching rate	13.3 ± 4.6%
CC(=O)N1CCC(C(=O)N2CCN3C(=O)c4cc(-c5ccccc5)ccc4NC(=O)C3C2)CC1 (stereo not shown)	Escherichia coli	–	WP2 uvrA	50 µg/plate, without S9	–	revertants per plate	23
C[C@@H](O)[C@@H](CO)NC(=O)[C@@H](CCCNC(=N)N)NC(=O)[C@@H]1CCCN1C(=O)[C@@H]1CSSC[C@H](NC(=O)[C@H](Cc2ccccc2)NC(=O)CN2CCN(CC(=O)O)CCN(CC(=O)O)CCN(CC(=O)O)CC2)C(=O)N[C@@H](Cc2ccc(O)cc2)C(=O)N[C@@H](Cc2ccccc2)C(=O)N[C@@H](CCC(N)=O)C(=O)N[C@@H](CC(N)=O)C(=O)N1 [gallium-68 labelled]	–	–	Wistar rat, healthy, Pituitary gland	intravenous, 8 MBq, 60 min	–	tissue uptake	0.49 %ID/g
CC[C@H](C)[C@H](NC(=O)[C@H](Cc1ccccc1)NC(=O)[C@H](CCC(=O)O)NC(=O)[C@H](CCCNC(=N)N)NC(=O)[C@H](C)NC(=O)[C@H](C)NC(=O)[C@H](CCC(N)=O)NC(=O)[C@H](CCC(=O)O)NC(=O)[C@H](CCC(=O)O)NC(=O)[C@H](CC(C)C)NC(=O)[C@H](Cc1ccc(O)cc1)NC(=O)[C@H](CO)NC(=O)[C@H](CO)NC(=O)[C@@H](NC(=O)[C@H](CC(=O)O)NC(=O)[C@H](CO)NC(=O)[C@@H](NC(=O)[C@H](Cc1ccccc1)NC(=O)[C@@H](NC(=O)CNC(=O)[C@H](CCC(=O)O)NC(=O)[C@H](C)NC(=O)CCc1c[nH]cn1)[C@@H](C)O)[C@@H](C)O)C(C)C)C(=O)N[C@@H](C)C(=O)N[C@@H](Cc1c[nH]c2ccccc12)C(=O)N[C@@H](CC(C)C)C(=O)N[C@H](C(=O)N[C@@H](CCCNC(=N)N)C(=O)NCC(=O)N[C@@H](CCCNC(=N)N)C(=O)N[C@@H](CCCCNC(=O)COCCOCCNC(=O)COCCOCCNC(=O)CC[C@H](NC(=O)CCCCCCCCCCCCCCCCC(=O)O)C(=O)O)C(=O)NCC(=O)NCC(=O)N[C@@H](CO)C(=O)N[C@@H](CCCCNc1c(NCCCCCN(O)C(=O)CCC(=O)NCCCCCN(O)C(=O)CCC(=O)NCCCCCN(O)C(C)=O)c(=O)c1=O)C(=O)O)C(C)C [zirconium-89 labelled]	–	–	rat, brain	iv, 3 nmol/kg, 4 h, ex vivo	–	tissue uptake	0.05 %ID/g
O=[N+]([O-])c1ccc(N2CCN(CCC(O)c3ccc(F)cc3)CC2)c(C(F)(F)F)c1 (stereo not shown)	Salmonella typhimurium	genotoxicity, SOS/umu test	TA1535/pSK1002	0.063 mg/mL, 4 h, without S9, full range	–	induction factor	0.9
O=C(c1ccc(Cl)cc1)N1CCN2C(=O)N(OC(=O)N3CCOc4ccccc43)C(=O)C2C1 (stereo not shown)	Tripeptidyl-peptidase 2 (Homo sapiens, UniProt P29144)	enzyme activity, inhibitor, MS-based ABPP	SW-620 in situ	10 µM, 2 h, 37 °C	baseline: compound over DMSO, lower = stronger inhibition	median ratio	1
OC(CCN1CC=C(c2ccc(F)cc2)CC1)c1ccc(F)c2ccccc12 (stereo not shown)	Salmonella typhimurium	SOS/umu test	TA1535/pSK1002	0.031 mg/mL, 4 h, with S9, lower range	–	survival	103%
CC[C@H](C)[C@@H]1NC(=O)[C@@H]2CCCN2C(=O)[C@H](CC(C)C)NC(=O)[C@H](CC(C)C)NC(=O)CNC(=O)[C@@H](NC(=O)[C@@H](NC(=O)[C@H](CC(=O)O)NC(=O)CNC(=O)[C@@H](NC(=O)[C@H](C)NC(=O)CNC(=O)[C@H](CCCCN)NC(=O)[C@H](CC(C)C)NC(=O)[C@H](CC(C)C)NC(=O)[C@H](CCCCN)NC(=O)CNC(=O)[C@@H](NC(=O)[C@@H](N)CC(C)C)C(C)C)C(C)C)C(C)C)CSSC[C@@H](C(=O)O)NC1=O	–	RNA-seq, item: Csrnp1	mouse, traumatic brain injury model, frontal cortex and hippocampus	dose not given	baseline: TBI alone	log2 fold change	-1.98
C=C(NC(=O)c1nccc(OC)c1O)C(=O)O[C@@H](C)[C@H](OC(=O)C(C)C)[C@@H](Cc1ccccc1)C(=O)O	Oncorhynchus mykiss	mortality, static-renewal water exposure	–	96 h	–	LC50	7.1 µg/mL (≈ 13.8 µM)
COc1ccc(C[C@H](NC(=O)[C@H](C)NC(=O)CN2CCOCC2)C(=O)N[C@@H](Cc2ccccc2)C(=O)C2(C)CO2)cc1 (stereo in doubt)	Plasmodium falciparum	–	Dd2, chloroquine-resistant	–	baseline: HEK-293T CC50 over IC50	selectivity ratio	> 19700
[Cl-].[Cl-].[Pt+2].[Ru+2].c1ccc(-c2nccnc2-c2ccccn2)nc1.c1cnc2c(c1)ccc1cccnc12.c1cnc2c(c1)ccc1cccnc12	Danio rerio	–	embryos	90 µM, 96 h	–	survival rate	33.3 ± 2.6%
COc1cc(Nc2ncc(F)c(Nc3ccc4c(n3)NC(=O)C(C)(C)O4)n2)cc(OC)c1OC	Receptor-type tyrosine-protein phosphatase eta (PTPRJ, Homo sapiens, UniProt Q12913)	–	–	DEP1	–	IC50	> 10 µM
O=[N+]([O-])c1ccc(N2CCC(NCCC(O)c3ccc(F)c4ccccc34)CC2)c(C(F)(F)F)c1 (stereo not shown)	Salmonella typhimurium	SOS/umu test	TA1535/pSK1002	6.1e-05 mg/mL, 4 h, with 10% rat liver S9	baseline: untreated	induction factor	1.3
CC[C@H](C)[C@H](NC(=O)[C@H](CCCCN)NC(=O)[C@@H](NC(=O)[C@H](Cc1ccc(O)cc1)NC(=O)[C@H](CCCCN)NC(=O)[C@H](CCCCN)NC(=O)CNC(=O)[C@H](CCCCN)NC(=O)[C@@H](NC(=O)[C@H](C)NC(=O)[C@H](CC(C)C)NC(=O)[C@H](Cc1c[nH]c2ccccc12)NC(=O)CNC(=O)[C@@H](NC(=O)[C@H](Cc1ccccc1)NC(=O)[C@H](CCCCN)NC(=O)[C@H](CC(C)C)NC(=O)[C@H](Cc1ccccc1)NC(=O)[C@H](C)NC(=O)CNC(=O)[C@@H](N)CCSC)C(C)C)[C@@H](C)O)C(C)C)C(=O)N[C@@H](C)C(=O)N[C@@H](Cc1c[nH]c2ccccc12)C(=O)N[C@@H](CC(=O)O)C(=O)N[C@@H](Cc1c[nH]cn1)C(=O)N[C@@H](CCCCN)C(=O)NCC(=O)N[C@H](C(=O)N[C@H](C(=O)N[C@@H](CCSC)C(=O)N[C@@H](CCCCN)C(=O)N[C@@H](Cc1c[nH]c2ccccc12)C(=O)N[C@@H](CC(C)C)C(=O)N[C@@H](CC(N)=O)C(=O)N[C@@H](C)C(=O)NCC(=O)N[C@@H](CCC(N)=O)C(=O)N[C@H](C(=O)N[C@@H](Cc1ccccc1)C(=O)N[C@H](C(=O)N[C@@H](Cc1c[nH]c2ccccc12)C(=O)N[C@H](C(=O)N[C@@H](Cc1ccc(O)cc1)C(=O)N[C@@H](CCC(=O)O)C(=O)N[C@@H](CCC(N)=O)C(=O)N[C@H](C(=O)N[C@@H](CCCCN)C(=O)N[C@@H](CCCCN)C(=O)N[C@@H](CC(C)C)C(=O)N[C@@H](Cc1c[nH]c2ccccc12)C(=O)N[C@H](C(=O)O)[C@@H](C)O)[C@@H](C)CC)C(C)C)[C@@H](C)O)[C@@H](C)O)[C@@H](C)CC)[C@@H](C)O	Pediococcus damnosus	–	CECT 4797	after room temperature exposure	–	MIC	98 µg/mL (≈ 16.2 µM)
CNC(=O)c1c(N(C)N=O)ncn1C	Salmonella typhimurium	plate incorporation	TA98, water	150 µg/plate, without S9	–	revertant colonies per plate	33 ± 9
C[C@H]1CN(c2n[nH]c3nc(N[C@H]4CC[C@H](NS(=O)(=O)CCC(F)(F)F)CC4)ncc23)CCO1	Serine/threonine-protein kinase WNK1 (WNK1, Homo sapiens, UniProt Q9H4A3)	inhibitor, Kinobeads competition profiling	–	0.032 µM	baseline: vehicle	relative abundance	1.11
COc1ccnc(C(=O)N[C@H]2COC(=O)[C@H](Cc3ccccc3)[C@@H](OC(=O)C(C)C)[C@H](C)OC2=O)c1OCOC(=O)C(C)C	Pseudokirchneriella subcapitata	growth	–	concentration not given, 72 h, static test	–	NOEC	> 522 µg/L
Fc1ccc(C2=CCNCC2)cc1	Salmonella typhimurium	genotoxicity, SOS/umu test	TA1535/pSK1002	0.008 mg/mL, 4 h, with S9, full range	–	induction factor	0.9
COc1cccc(-c2n[nH]c(SCc3ccccn3)n2)c1OC	Escherichia coli	Ames test, plate incorporation	WP2 uvrA	0.50 mg/plate, without S9	–	revertant colonies per plate	31

Repeated from above:
SMILES	tested on	test	system	setting	scale	quantity	value
COc1cc2c(Oc3ccc4[nH]c(C)cc4c3F)ccnc2cc1OCC1(N)CC1	–	–	paediatric recurrent refractory sarcoma	8 mg	–	grade 1 or 2 weight loss	25%
